Measured values pooled from the literature.
A part holds a random share of what one study measured. Substitutions count along the parent as printed.

Block 1
Target: Prothrombin, mature alpha-thrombin (F2, Homo sapiens, UniProt P00734)
Method: aptamer microarray, sandwich
Form: DNA with 2'F-ANA
Matrix: in vitro
Tested at: 200 nM
Notes: whole 15-mer aptamer, many near background
With: Cy3 exosite-II aptamer, 400 nM
Reading: higher = stronger binding
Oligonucleotide: GGTTGGTGTGGTTGG
| Modification | mean fluorescence intensity [a.u.] |
| --- | --- |
| 2'F-ANA at 3 4 6 7 11 12 | 762 |
| 2'F-ANA at 1 4 6 7 8 10 15 | 53.9 |
| 2'F-ANA at 1 2 4 5 6 8 11 | 148 |
| 2'F-ANA at 2 5 6 8 9 10 11 12 13 | 57.3 |
| 2'F-ANA at 1 2 3 6 7 8 9 10 13 14 15 | 112 |
| 2'F-ANA at 3 10 11 12 15 | 600 |
| 2'F-ANA at 2 4 6 10 15 | 80.3 |
| 2'F-ANA at 1 2 10 12 15 | 74.8 |
| 2'F-ANA at 2 3 8 10 14 | 269 |
| 2'F-ANA at 4 9 14 15 | 84.3 |
| 2'F-ANA at 1 3 4 12 | 487 |
| 2'F-ANA at 1 2 3 4 7 10 11 12 13 | 61.9 |
| 2'F-ANA at 1 2 4 5 6 8 10 11 14 15 | 50 |
| 2'F-ANA at 1 6 7 8 9 11 12 14 | 73.4 |
| 2'F-ANA at 1 2 4 5 6 8 10 12 13 | 224 |
| 2'F-ANA at 2 4 5 6 8 10 11 13 14 15 | 50.4 |
| 2'F-ANA at 1 7 8 12 14 15 | 116 |
| 2'F-ANA at 2 3 4 11 12 15 | 744 |
| 2'F-ANA at 1 3 4 8 9 13 14 15 | 61.1 |
| 2'F-ANA at 2 3 4 5 6 14 | 54.1 |
| 2'F-ANA at 2 3 4 5 10 13 15 | 47.8 |
| 2'F-ANA at 1 5 7 10 | 45 |
| 2'F-ANA at 2 3 4 6 9 11 12 13 15 | 471 |
| 2'F-ANA at 1 2 3 6 8 10 11 13 | 61 |
| 2'F-ANA at 2 3 4 5 8 9 12 13 | 111 |

Block 2
Target: ABI1, truncated, D143A, DHFR fusion (Arabidopsis thaliana, UniProt P49597)
Method: DHFR PCA, dose-response
Matrix: yeast
Notes: Hill fit, mean, not affinity
With: (+)-ABA, dose series
Reading: lower = more sensitive
Starting sequence: PYL1, truncated, DHFR fusion (Arabidopsis thaliana, UniProt Q8VZS8); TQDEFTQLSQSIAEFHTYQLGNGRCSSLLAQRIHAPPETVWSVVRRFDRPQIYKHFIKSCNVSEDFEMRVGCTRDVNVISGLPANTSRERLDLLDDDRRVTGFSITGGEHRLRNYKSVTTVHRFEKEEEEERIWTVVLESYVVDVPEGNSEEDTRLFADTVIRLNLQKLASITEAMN
| Change | ABA EC50 |
| --- | --- |
| L138S | 868 µM |
| R90Y | 110 µM |
| R88C | 2.68 µM |
| V76Y | 23.8 µM |
| G148W | 84.5 µM |
| A13P | 68.2 µM |
| A175I | 3.73 µM |
| D95W | 95.7 µM |
| M176Q | 2.55 µM |
| Y18I | 16.5 µM |
| E129T | 1.94 µM |
| T39F | 7.06 µM |
| G107F | 270 µM |
| N22D | 1.54 µM |
| G107Q | 60.4 µM |
| G71Q | 170 µM |
| R49Y | 13.4 µM |
| E139Q | 0.768 µM |
| L8S | 139 µM |
| S104Y | 208 µM |
| K168L | 77.5 µM |
| T160G | 24.9 µM |
| T86V | 44 µM |
| T17G | 35.7 µM |
| Q19F | 8.12 µM |

Block 3
Target: Sal-like protein 4, full length isoform A (SALL4, Homo sapiens, UniProt Q9UJQ4, residues 1-1053)
Sequence of UniProt Q9UJQ4 (whole entry, looked up): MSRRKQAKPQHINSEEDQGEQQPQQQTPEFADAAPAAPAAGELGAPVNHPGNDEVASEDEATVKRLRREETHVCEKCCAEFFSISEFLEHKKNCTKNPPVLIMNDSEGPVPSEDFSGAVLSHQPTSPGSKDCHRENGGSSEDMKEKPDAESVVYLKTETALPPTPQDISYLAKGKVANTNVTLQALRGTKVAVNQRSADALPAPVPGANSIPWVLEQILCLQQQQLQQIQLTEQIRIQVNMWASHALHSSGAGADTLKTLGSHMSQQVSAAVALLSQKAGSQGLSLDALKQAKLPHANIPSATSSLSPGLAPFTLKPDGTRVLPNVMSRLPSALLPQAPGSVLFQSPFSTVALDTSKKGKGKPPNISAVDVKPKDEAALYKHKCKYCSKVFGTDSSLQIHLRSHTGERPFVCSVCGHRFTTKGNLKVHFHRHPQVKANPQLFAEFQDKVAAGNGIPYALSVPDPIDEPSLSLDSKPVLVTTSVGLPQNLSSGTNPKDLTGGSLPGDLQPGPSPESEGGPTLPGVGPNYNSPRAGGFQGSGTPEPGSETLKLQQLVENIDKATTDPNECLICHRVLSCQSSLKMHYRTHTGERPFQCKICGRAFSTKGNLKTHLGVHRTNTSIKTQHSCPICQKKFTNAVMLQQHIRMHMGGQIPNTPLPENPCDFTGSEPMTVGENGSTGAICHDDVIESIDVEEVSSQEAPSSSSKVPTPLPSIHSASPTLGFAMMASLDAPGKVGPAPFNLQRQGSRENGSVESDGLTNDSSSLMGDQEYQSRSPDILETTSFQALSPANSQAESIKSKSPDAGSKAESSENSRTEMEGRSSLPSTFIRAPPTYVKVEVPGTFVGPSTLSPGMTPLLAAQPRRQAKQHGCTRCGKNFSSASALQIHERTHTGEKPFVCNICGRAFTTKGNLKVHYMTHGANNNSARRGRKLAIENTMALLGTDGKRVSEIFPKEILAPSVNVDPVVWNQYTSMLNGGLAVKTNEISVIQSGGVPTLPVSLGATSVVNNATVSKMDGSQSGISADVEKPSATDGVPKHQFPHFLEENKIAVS
Method: universal PBM
Form: double-stranded DNA, one strand shown
Matrix: in vitro
Tested at: 600 nM
Notes: 8-mer, flanks averaged, mean of replicates
Reading: higher = stronger binding
| Oligonucleotide | E-score |
| --- | --- |
| GTTCTTGA | 0.14 |
| CCACTGGG | -0.399 |
| CCGACAAC | -0.137 |
| CCTTAGTC | -0.0282 |
| ACGTGGAC | -0.219 |
| AACTTATG | 0.302 |
| GAACAATC | 0.0703 |
| CCCCAGCG | -0.364 |
| CCGATGAG | -0.111 |
| CGACCGCC | -0.294 |
| CAGTGTGA | 0.00027 |
| AGTCATCA | -0.096 |
| GCTCCACA | -0.251 |
| GCTCACAA | 0.0249 |
| GTGACCAC | -0.268 |
| ATTTTCTA | 0.332 |
| AATAACTA | 0.388 |
| AGAACAAT | 0.288 |
| CCGACAAA | 0.0796 |
| AAATTTGA | 0.312 |
| GCCGCGGC | -0.173 |
| GTTAGTGA | 0.0886 |

Block 4
Target: CCND1, cyclin fold, Cln2 fusion (human)
Method: yeast growth competition, sequencing
Matrix: yeast
Notes: weak parent motif
Reference: not given
Reading: higher = stronger binding
Starting sequence: E2F1 docking peptide (human); PPVKRRLDLETDH; partner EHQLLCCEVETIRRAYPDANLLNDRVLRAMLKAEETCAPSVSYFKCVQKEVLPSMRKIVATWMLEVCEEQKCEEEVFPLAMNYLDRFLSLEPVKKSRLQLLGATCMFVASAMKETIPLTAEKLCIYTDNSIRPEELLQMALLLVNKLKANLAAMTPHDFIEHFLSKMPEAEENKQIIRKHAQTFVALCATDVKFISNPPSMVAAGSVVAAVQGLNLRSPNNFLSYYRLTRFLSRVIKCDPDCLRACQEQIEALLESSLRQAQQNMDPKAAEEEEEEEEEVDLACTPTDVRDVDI
| Change | normalised enrichment score |
| --- | --- |
| PDVKRRLDLETDH [P2D] | 0.831 |
| PPVKFRLDLETDH [R5F] | 0.842 |
| PPVKRRLDLPTDH [E10P] | -0.106 |
| PPVKRRLDLETNH [D12N] | -0.382 |
| PPVKRRLDLETDS [H13S] | 0.738 |
| PPVKRRLHLETDH [D8H] | -0.522 |
| TPVKRRLDLETDH [P1T] | 0.628 |
| HPVKRRLDLETDH [P1H] | 0.645 |
| PPVKRRLDLETQH [D12Q] | 0.744 |
| PPVKRRLDLEHDH [T11H] | -0.118 |
| PPVKRRLDLITDH [E10I] | 0.369 |
| PPVKRRLDLETDC [H13C] | 0.893 |
| PPVKRRLDLEGDH [T11G] | -0.0154 |
| PPVKRRLPLETDH [D8P] | 0.0719 |
| PPVYRRLDLETDH [K4Y] | -0.193 |
| PPVKRRHDLETDH [L7H] | -0.0456 |
| PPVKRRLDLFTDH [E10F] | 0.169 |
| SPVKRRLDLETDH [P1S] | 0.959 |
| PPVKRRLDLECDH [T11C] | 0.131 |
| PPVKRRLDLEPDH [T11P] | 1.55 |
| PAVKRRLDLETDH [P2A] | 0.0788 |
| PPVIRRLDLETDH [K4I] | 0.41 |
| PPVKRRLDLWTDH [E10W] | 0.131 |
| PQVKRRLDLETDH [P2Q] | 0.103 |
| PPVHRRLDLETDH [K4H] | 0.376 |

Block 5
Target: Hepatocyte nuclear factor 3-alpha (Foxa1, Mus musculus, UniProt P35582, residues 1-468, full length assumed)
Method: EMSA with sequencing
Form: double-stranded DNA, one strand shown
Matrix: in vitro
Tested at: 10 and 20 nM
Notes: whole designed probe, mean of two concentrations, ends assumed
Reference: negative control set to 0
Reading: higher = stronger binding
All sequences stand within: GTGAGCGGTGCCCATTGATGGGGAAC … TTTCACTGGGATCGTGGGGAC
Residues (chain): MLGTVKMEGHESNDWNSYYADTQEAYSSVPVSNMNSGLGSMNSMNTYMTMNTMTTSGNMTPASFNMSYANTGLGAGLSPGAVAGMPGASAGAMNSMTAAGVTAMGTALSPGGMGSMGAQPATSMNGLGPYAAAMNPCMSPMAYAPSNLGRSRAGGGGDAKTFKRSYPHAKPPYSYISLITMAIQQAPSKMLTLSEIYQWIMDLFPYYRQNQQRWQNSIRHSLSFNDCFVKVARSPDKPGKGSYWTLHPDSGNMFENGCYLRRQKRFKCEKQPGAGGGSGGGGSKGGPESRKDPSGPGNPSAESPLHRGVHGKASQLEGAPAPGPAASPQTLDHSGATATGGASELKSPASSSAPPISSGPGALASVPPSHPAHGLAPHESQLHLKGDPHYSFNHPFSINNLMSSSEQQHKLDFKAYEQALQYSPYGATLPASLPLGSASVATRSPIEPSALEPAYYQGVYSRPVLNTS
| Oligonucleotide | normalised bound fraction [ratio] |
| --- | --- |
| GTCTCTTGAGGGCAGGGACCCTGGCTGCTTTTCCCATTATCCTTCCAAAGCTCCAGCTCTGGGGCCATGAACCAGAAATCATTCCTTCAAGGATGTTGACACAGTGAGTCACCTGAGAAGGGGCAGGGTGCAGGAGGGGTGGGGCAGGAGATCAGGAACTGGTGTGGGACATTAGGGGTGGGAGATAGGCCAG | 0.246 |
| AACGGGACTCTGGCTGGGCCAGGGCTCCTCGCCCAGGATGCCCGGGGAGAGGCCCCGTGTGAGGGCCTCACTCTGTGGGCTTAGGAATCCCAGAGTAATCTGATCAAGTTACCCGTGTCAGCCGGGCCGTCCACAACAGGCAGCCGCAGCGATTGAAGATGGGAATGTTCTTCTCAGAGATGACTCAGCTACT | -0.0653 |
| GCAAATGGAGGGTGAAAAAGTCAGATTTTAGATCAGAGAATGTCATACCCTGAAATCAGCATGTTCTTAGTAGGGACATAAAATGGGGTTGTAAGATGACACAGACTGAGAGTAGCTCAAAGTTCAGGAGCCTGAGGGAGAAAGATAAACTTAAGTAAAGTTTGATTAAGAAATATTTTATTTTAGGCTGAGC | 0.0392 |
| CATTAGAGTCAAAGTTGTTAAGGGGAGCTAGTCATAGCTACCACGTGGCCAGGCATGTGGAACCAGACACCAGGCACACATCATGTAACATCATATTTACTTTAAATAATGCTGACAACCTAGTTCATAGTGACACACTACTTGAGATATATAGAATAACATTATTACCCAGTAAGTATGTGAACATTCCGAT | 0.301 |
| CACGGGCTCTGCTGCTCAGGAAGAATAAAATACAGAAAAATCTCATCTCTGTTGGTAGTTTTGGCTTCCTTATCCCATCACTTTCAACCACCCATGTTTACATAAGGCCACACTGCTGGGCTGGAATGCCTAGCTGTGGCCCCTCTCAAGACAACATGATAAACAGAGCATTTGCTCCAAGTTGAACAACAAG | 0.501 |
| TGTTTTTAAATGGAGTTTAAAATAAACTGTTAAGAGCTCTGTTAAACTCCGGGCTTAGAGTATATTCTATTTTGGGATATTATTACTCAGTATGTAAACAAGCTGTACCAAGATAAACTGTACAAGATTTCATAATTCCTTGCTGCTCAAGAATAGCAGCTGGTTGCTGCAAAAATTTCAGTTTCCCCCCTAT | 0.389 |
| TCATATGGCTCAGTTGGAATATTATTTTTTCTGTGACACTTCCTTTATTCCTCTGATCATATATAAATATTGTTCTACTCTCAGCATCTCCATATTTACTTAGTAGTATGTAGATTTCAAGCCACTCTAGAATTTTTGATTATTTATTTAGGTGTATTTGTTATCTCCTTTACTTGATTTTATGCTAGGTGGG | 0.53 |
| ATCCACGAACCTGGCCCTGTCTGGTAACCACAGTGAACCATCGCAAGATACAGCACTATGTGCCCAGTTGTAATGACTCACGGCTGGAACCAGTGTTGACACATCACATCCTCAGGGACACGGAAGTGTACTTGTTTTTGGAGAGGGACTAGACCTTCATCCTTGAGGTGAAGAAGATTTTCTCTCCAGGGTG | 0.104 |

Single results of other studies
Method: cross-linking MS
| Substance | partner | system | setting | quantity | value |
| --- | --- | --- | --- | --- | --- |
| MCM4 (Homo sapiens, UniProt P33991) | MCM7 (Homo sapiens, UniProt P33993) | cell fractions | with: DMTMM | cross-linked residues | K627 to E502 |
| MYH9 (Homo sapiens, UniProt P35579) | MYH10 (Homo sapiens, UniProt P35580) | – | hits only | interaction screen | cross-linked |
